Measured values pooled from the literature.
Compare with care: the assays were run in different laboratories. Numbers after ± are the reported error.

N=C(N)NCCC[C@@H]1NC(=O)[C@H](CCCCNC(=O)c2ccc(CNC34CNCCNCC(N)(CNCCNC3)CNCCNC4)cc2)NC(=O)[C@@H](Cc2ccc(O)cc2)NC(=O)[C@H](CC(=O)O)NC(=O)CNC1=O [copper-64 labelled] gave a tissue uptake of 0.34 ± 0.07 %ID/g (ex vivo biodistribution; male athymic nude mouse, PC-3 tumour, muscle; 7.4 MBq, 48 h).
The tissue uptake of C[C@@H](O)[C@@H](CO)NC(=O)[C@@H](CCCNC(=N)N)NC(=O)[C@@H]1CCCN1C(=O)[C@@H]1CSSC[C@H](NC(=O)[C@H](Cc2ccccc2)NC(=O)CN2CCN(CC(=O)O)CCN(CC(=O)O)CCN(CC(=O)O)CC2)C(=O)N[C@@H](Cc2ccc(O)cc2)C(=O)N[C@@H](Cc2ccccc2)C(=O)N[C@@H](CCC(N)=O)C(=O)N[C@@H](CC(N)=O)C(=O)N1 [gallium-68 labelled] is reported as 0.24 %ID/g (Wistar rat, spleen; intravenous, 8 MBq, 60 min, group mean).
With CCCCCCCCCC(=O)N[C@@H](Cc1c[nH]c2ccccc12)C(=O)N[C@H](CC(N)=O)C(=O)N[C@@H](CC(=O)O)C(=O)N[C@@H]1C(=O)NCC(=O)N[C@@H](CCCNC(=O)CCC(=O)N2Cc3ccccc3-c3c(nnn3CCC[C@H](NC(=O)CCCCC[N+]3=C(C=CC4=CC(=CC=C5N(C)c6ccccc6C5(C)C)CCC4)C(C)(C)c4ccccc43)C(=O)NCCCCNC(=O)CCC(=O)N3Cc4ccccc4-c4c(nnn4CCOCCOCCOCCNC(=O)CN4CCN(CC(=O)NCCNC(=O)c5cccc(O)c5O)CCN(CC(=O)NCCNC(=O)c5cccc(O)c5O)CCN(CC(=O)NCCNC(=O)c5cccc(O)c5O)CC4)-c4ccccc43)-c3ccccc32)C(=O)N[C@@H](CC(=O)O)C(=O)N[C@H](C)C(=O)N[C@@H](CC(=O)O)C(=O)NCC(=O)N[C@H](CO)C(=O)N[C@@H]([C@H](C)CC(=O)O)C(=O)N[C@@H](CC(=O)c2ccccc2N)C(=O)O[C@@H]1C the half-life was 35 min (mouse plasma; 1 µM, up to 240 min, pH 7.4, 37 °C).
CC(C)C[C@H](NC(=O)C[C@H](O)[C@H](CC(C)C)NC(=O)[C@H](Cc1c[nH]cn1)NC(=O)CNC(=O)[C@@H](NC(=O)[C@H](C)NC(=O)[C@H](Cc1c[nH]c2ccccc12)NC(=O)[C@H](CCC(N)=O)NC(=O)[C@@H](Cc1ccccc1)NC(=O)CCNC(=O)CCSc1nnc(NCCC(=O)NCCC(=O)NCCCC[C@H](NC(=O)N[C@@H](CCC(=O)O)C(=O)O)C(=O)O)c2c1CCC1C(CC2)C1COC(=O)NCCNC(=O)CC[C@H](C(=O)O)N1CCN(CC(=O)O)CCN(CC(=O)O)CC1)C(C)C)C(N)=O (some centres unmarked) [gallium-68 labelled] gave a tissue uptake of 0.14 %ID/g (athymic NMRI nude mouse, colon; intravenous, dose not given, 2 h, added: bombesin 480 nmol (GRPR blocking)).
The Cmax of COc1cccc2c1C(=O)c1c(O)c3c(c(O)c1C2=O)C[C@@](O)(C(=O)CO)C[C@@H]3O[C@H]1C[C@H](NC(=O)[C@@H]2CCCN2C(=O)CNC(=O)[C@H](CC(C)C)NC(=O)[C@H](C)NC(=O)CP(=O)(O)O)[C@H](O)[C@H](C)O1 is reported as 6120 µM (healthy mice, plasma; intravenous, 849.5 mg/kg, extrapolated to time zero).
CC[C@H](C)[C@H](NC(=O)[C@H](Cc1ccccc1)NC(=O)[C@H](CCC(=O)O)NC(=O)[C@H](CCCNC(=N)N)NC(=O)[C@H](C)NC(=O)[C@H](C)NC(=O)[C@H](CCC(N)=O)NC(=O)[C@H](CCC(=O)O)NC(=O)[C@H](CCC(=O)O)NC(=O)[C@H](CC(C)C)NC(=O)[C@H](Cc1ccc(O)cc1)NC(=O)[C@H](CO)NC(=O)[C@H](CO)NC(=O)[C@@H](NC(=O)[C@H](CC(=O)O)NC(=O)[C@H](CO)NC(=O)[C@@H](NC(=O)[C@H](Cc1ccccc1)NC(=O)[C@@H](NC(=O)CNC(=O)[C@H](CCC(=O)O)NC(=O)[C@H](C)NC(=O)CCc1c[nH]cn1)[C@@H](C)O)[C@@H](C)O)C(C)C)C(=O)N[C@@H](C)C(=O)N[C@@H](Cc1c[nH]c2ccccc12)C(=O)N[C@@H](CC(C)C)C(=O)N[C@H](C(=O)N[C@@H](CCCNC(=N)N)C(=O)NCC(=O)N[C@@H](CCCNC(=N)N)C(=O)N[C@@H](CCCCNC(=O)COCCOCCNC(=O)COCCOCCNC(=O)CC[C@H](NC(=O)CCCCCCCCCCCCCCCCC(=O)O)C(=O)O)C(=O)NCC(=O)NCC(=O)N[C@@H](CO)C(=O)N[C@@H](CCCCNc1c(NCCCCCN(O)C(=O)CCC(=O)NCCCCCN(O)C(=O)CCC(=O)NCCCCCN(O)C(C)=O)c(=O)c1=O)C(=O)O)C(C)C [zirconium-89 labelled] has a tissue uptake of 0.69 %ID/g (rat, liver; iv, 3 nmol/kg, 168 h, ex vivo).
For O=C(O)C[C@H](NC(=O)[C@H](CC(=O)O)NC(=O)[C@H](CC(=O)O)NC(=O)[C@H](CC(=O)O)NC(=O)[C@H](CC(=O)O)NC(=O)[C@H](CC(=O)O)NC(=O)[C@H](CC(=O)O)NC(=O)[C@H](CC(=O)O)NC(=O)[C@H](CC(=O)O)NC(=O)[C@H](CC(=O)O)NC(=O)[C@H](CC(=O)O)NC(=O)[C@H](CCCCNC(=O)c1ccc(C(=O)NCCOCCOB2BBBBBB3BBBB3B2)cc1)NC(=O)CN1CCN(CC(=O)O)CCN(CC(=O)O)CCN(CC(=O)O)CC1)C(=O)O [gallium-67 labelled], the tissue uptake was 2.51 %ID/g (gamma counting; ddY mouse, male, 6 weeks old, heart; intravenous, 37 kBq, 10 min).
For Cc1ccccc1NC(=O)Nc1ccc(CC(=O)N[C@@H](CCCCNC(=O)/C=C/c2cccnc2)C(=O)N[C@@H](CCCC(=O)O)C(=O)NC2(C(=O)NCCOCCOCCOCCOCC(=O)N[C@@H](CCCCNC(=S)Nc3ccc(CCCN(CCN4CCN(CP(=O)(O)O)CCN(CP(=O)(O)O)CC4)CC(=O)O)cc3)C(N)=O)CCCCC2)cc1 [gallium-68 labelled], the dissociation was under 5% (human serum; 2 h, 37 °C, 68Ga-labelled).

Some of these lines once more:
For O=C(O)C[C@H](NC(=O)[C@H](CC(=O)O)NC(=O)[C@H](CC(=O)O)NC(=O)[C@H](CC(=O)O)NC(=O)[C@H](CC(=O)O)NC(=O)[C@H](CC(=O)O)NC(=O)[C@H](CC(=O)O)NC(=O)[C@H](CC(=O)O)NC(=O)[C@H](CC(=O)O)NC(=O)[C@H](CC(=O)O)NC(=O)[C@H](CC(=O)O)NC(=O)[C@H](CCCCNC(=O)c1ccc(C(=O)NCCOCCOB2BBBBBB3BBBB3B2)cc1)NC(=O)CN1CCN(CC(=O)O)CCN(CC(=O)O)CCN(CC(=O)O)CC1)C(=O)O [gallium-67 labelled], the tissue uptake was 2.51 %ID/g (gamma counting; ddY mouse, male, 6 weeks old, heart; intravenous, 37 kBq, 10 min).
